# Measured values pooled from the literature.
# A part holds a random share of what one study measured.

# Sample 1 — method: RNA Bind-n-Seq; form: RNA; medium: in vitro; concentration: 200 nM; notes: whole 134-nt RNA, ends assumed; together with: 150 mM KCl; relative to: input library; direction: higher = stronger binding
# Target: Ras GTPase-activating protein-binding protein 1, full length (G3BP1, Homo sapiens, UniProt Q13283)
# Sequence of UniProt Q13283 (whole entry, looked up): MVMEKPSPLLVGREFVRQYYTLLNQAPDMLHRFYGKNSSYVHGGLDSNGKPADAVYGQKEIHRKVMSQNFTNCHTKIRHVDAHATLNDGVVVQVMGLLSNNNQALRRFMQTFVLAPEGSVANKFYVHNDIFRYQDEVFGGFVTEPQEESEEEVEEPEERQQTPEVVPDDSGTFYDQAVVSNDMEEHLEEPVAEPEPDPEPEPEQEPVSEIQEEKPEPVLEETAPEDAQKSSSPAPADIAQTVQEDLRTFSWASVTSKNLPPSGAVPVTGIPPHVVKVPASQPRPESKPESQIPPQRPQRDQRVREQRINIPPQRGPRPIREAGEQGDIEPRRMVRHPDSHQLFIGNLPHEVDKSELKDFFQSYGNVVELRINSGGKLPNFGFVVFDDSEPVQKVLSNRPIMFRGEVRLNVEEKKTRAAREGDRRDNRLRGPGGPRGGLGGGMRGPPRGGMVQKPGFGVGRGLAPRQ
# Shared flanks, not repeated: GGGAGUUCUACAGUCCGACGAUC … UGGAAUUCUCGGGUGUCAAGG
Strand,log2 enrichment
CCUGUGCUACACAUCGUAUGUACCGAAUCGGAAAAAAAGGGGAAAAAAAGGGAAAAAAAGGAAAGUAUUAUGUUACGCCGUUCGGAUCUG,-0.929
UCAAGUCCUGUGCUACACAUCGUAUGUACCGAAUCGGGGAAGGGGAAGGGAAGGAAAGUAUUAUGUUACGCCGUUCGGAUCUGCACUUCC,-0.0959
CCUGUGCUACACAUCGUAUGUACCGAAUCAAAUUUUUUUAAAUUUUUUUAAACCCCCAAAAAAGUAUUAUGUUACGCCGUUCGGAUCUGC,-0.0897
GUGCUACACAUCGUAUGUACCGAAUCGGGGAAAAAAAGGGGUUUUUUUGGGGAAAAAAAGGGGAAAGUAUUAUGUUACGCCGUUCGGAUC,-0.26
AAGUCCUGUGCUACACAUCGUAUGUACCGAAUCGGAAAAAAAGGAGGAAAAAAAGGAAAGUAUUAUGUUACGCCGUUCGGAUCUGCACUU,-0.814
UGGCCCUGGUGGCAUGCGGGGAGGAAGAGGUGGCCACAUGGAUCGUGGUGGUCCCGGUGGAAUGUUCAGAGGUGGCCGUGGUGGAGACAG,0.182
AGUCCUGUGCUACACAUCGUAUGUACCGAAUCGGGGUUUUGGGUUUUGGGUUUUGGGAAAGUAUUAUGUUACGCCGUUCGGAUCUGCACU,-0.147
UCCUGUGCUACACAUCGUAUGUACCGAAUCAAACCCCCCCAAACCCCCAAAUUUUUAAAAAAGUAUUAUGUUACGCCGUUCGGAUCUGCA,-0.00108
UAACUUUAGAGGAGGAUCUGAUGGAUAUGGCAGUGGACGUGGAUUUGGGGAUCGCUAUAAUGGGUAUGGAGGAGGACCUGGAGGUGGCAA,0.179

# Sample 2 — method: RNAcompete; form: RNA; medium: in vitro; concentration: 20 nM; notes: 7-mer, probes averaged, single round; relative to: mean of 7-mers; direction: higher = stronger binding
# Target: PABPC1L2, full length, GST fusion (mouse, UniProt A0ABA7IW68)
# Residues (chain): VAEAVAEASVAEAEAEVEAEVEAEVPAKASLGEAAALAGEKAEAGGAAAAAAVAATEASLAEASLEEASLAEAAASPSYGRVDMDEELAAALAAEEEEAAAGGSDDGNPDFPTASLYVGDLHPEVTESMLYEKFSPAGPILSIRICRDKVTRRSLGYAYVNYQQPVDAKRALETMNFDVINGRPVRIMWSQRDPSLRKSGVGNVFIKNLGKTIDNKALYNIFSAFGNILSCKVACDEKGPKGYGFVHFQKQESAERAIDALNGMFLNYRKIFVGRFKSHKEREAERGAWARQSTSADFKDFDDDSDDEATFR
Strand,7-mer Z-score
AUUGUUU,-0.407
CGUCUGG,-0.202
GUUAACU,-0.315
CAACCUG,-0.104
AACUUUU,-0.101
CUUAUUG,-0.197
GUGCCUG,-0.122
AGCCACA,-0.106
GCACUGC,-0.191
CCCGUCC,-0.467
AGCUGCU,-0.135
GUUACAC,-0.264
AAGGGAG,0.441
CAGAGCU,-0.191
AUUACCG,-0.199
CAGUAAU,-0.0645
CGGACGG,0.00798
CGAUACC,-0.177
ACCGCUA,-0.0935
AGAUAAC,-0.0899
UUCCACU,-0.231
UGGCUCC,-0.106
UGCUAAC,-0.235
CUUCAAA,0.224
GGAUAGU,-0.124

# Sample 3 — method: protein binding microarray; form: double-stranded DNA, one strand shown; medium: in vitro; concentration: not given; relative to: not given; direction: higher = stronger binding
# Target: Histone acetyltransferase KAT6A, winged helix 2, GST fusion (KAT6A, Homo sapiens, UniProt Q92794, residues 85-181)
# Notes: 8-mer, flanks averaged, mean of 2 arrays, mostly near background
# Residues (chain): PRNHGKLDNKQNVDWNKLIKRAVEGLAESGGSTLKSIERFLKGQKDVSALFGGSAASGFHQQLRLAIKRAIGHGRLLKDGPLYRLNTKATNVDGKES
Strand,E-score
ACCCGGTC,0.0302
AAAATCAT,0.143
ATAAGGCG,0.0292
GGTACATA,-0.297
ACTAAGCC,-0.0927
GATACTAA,0.0188
CATATTCA,0.117
CCATAAAG,0.00687
CTAGACGC,-0.0178
CACCACTA,-0.0858
GTGGAAAA,-0.0165
CAGTCTAG,-0.0147
GAGCGTGA,-0.143
AGAAGGCT,-0.29
AGGGGATA,-0.175
AGCACCCG,0.0841
ATAACGAT,-0.261
AAAGATTC,0.0632

# Sample 4 — method: protein-binding microarray; form: double-stranded DNA, one strand shown; medium: in vitro; concentration: 940 nM top; notes: 60-bp whole probe; together with: salmon DNA 0.4 mg/ml; relative to: random background probes; direction: higher = stronger binding; shared flanks, not repeated: GCCTAGCAC … GTCTTGATTCGCTTGACGCTGCTG
# Target: Interferon regulatory factor 5, full length, phosphomimetic (IRF5, Homo sapiens, UniProt Q13568-2, residues 1-514, S451D/S453D/S456D/S462D)
Strand,fitted relative affinity [z-score]
TAGGTTTTCTGGTTCCCATTGTGCTAG,0.992
ATATATATCCATTATAGATGGTGCTAG,-0.256
AACTTGGCAGGAGCGAATGGGTGCTAG,-0.561
TTAGGTATCCTTATCTTTTAGTGCTAG,0.519
TCATTTTTCTATATGCAACTGTGCTAG,1.21
TTCCTTTGCTTTCTCCCAAGGTGCTAG,2.13
GACGGACAGCTTCTCCTGACGTGCTAG,-0.664
CGTAAGCAAAAATGATTGGTGTGCTAG,-0.198
GACGGACTGCTTATCCGGACGTGCTAG,-0.238
ATGATTGGTTGAACATGAACGTGCTAG,-0.184
AACGGTTTCCTTCTCCTGACGTGCTAG,1.89
TTAGGTCTCCTACTGCTTTTGTGCTAG,0.143
TTAGGTCTCGGATTCGGTTAGTGCTAG,1.84
TCAGGACTCAGGTCTCCCACTGTGCTA,-0.00884
TCATGTATATATTTTAAACTGTGCTAG,0.191
TTAGAACTAGGGACTGGATTAGTGCTA,-0.278

# Sample 5 — method: universal PBM; form: double-stranded DNA, one strand shown; medium: in vitro; concentration: not given; direction: higher = stronger binding
# Target: Sal-like protein 4, full length isoform B (SALL4, Homo sapiens, UniProt Q9UJQ4-2, residues 1-616)
# Notes: 8-mer, flanks averaged, mean of replicates
# Target sequence (chain): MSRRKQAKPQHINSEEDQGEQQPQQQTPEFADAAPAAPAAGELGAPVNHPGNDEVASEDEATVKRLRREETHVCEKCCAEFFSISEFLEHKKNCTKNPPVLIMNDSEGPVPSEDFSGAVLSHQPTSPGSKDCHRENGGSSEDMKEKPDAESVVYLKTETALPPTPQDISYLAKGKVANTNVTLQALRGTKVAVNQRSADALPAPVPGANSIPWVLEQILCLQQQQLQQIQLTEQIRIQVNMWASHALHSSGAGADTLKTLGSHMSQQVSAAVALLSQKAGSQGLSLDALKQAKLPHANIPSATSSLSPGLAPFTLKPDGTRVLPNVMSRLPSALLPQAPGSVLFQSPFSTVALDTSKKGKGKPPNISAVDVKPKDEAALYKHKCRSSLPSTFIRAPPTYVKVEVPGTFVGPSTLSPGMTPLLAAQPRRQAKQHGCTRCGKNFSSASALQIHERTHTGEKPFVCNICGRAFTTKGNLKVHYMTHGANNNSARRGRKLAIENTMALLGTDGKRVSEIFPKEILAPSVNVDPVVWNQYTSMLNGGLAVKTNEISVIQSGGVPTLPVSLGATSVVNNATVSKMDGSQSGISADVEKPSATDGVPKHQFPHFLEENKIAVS
Strand,E-score
CTTGATCC,-0.0876
ATGGGAAC,0.0857
GGTCAAAA,0.0407
CCATGGAA,0.00622
ACAGAACT,0.198
AAGGGGGT,-0.14
CGGTAAAG,-0.0379
CGAGCCAG,-0.118
AGGTCGAC,-0.0887
AGCTTAGG,-0.162
AGTCTCAC,0.0103
ATACGCTG,0.0162
CCAGAGCA,-0.129
CGCGGCAA,-0.181
ACACAGAC,0.0531
CAACATAA,0.3
ATGTCTGC,0.00561
GTGTGATA,0.253
CACAGTGG,-0.0163

# Some of these lines once more (sample 4):
Strand,fitted relative affinity [z-score]
TCATTTTTCTATATGCAACTGTGCTAG,1.21
TTCCTTTGCTTTCTCCCAAGGTGCTAG,2.13
GACGGACAGCTTCTCCTGACGTGCTAG,-0.664
CGTAAGCAAAAATGATTGGTGTGCTAG,-0.198
GACGGACTGCTTATCCGGACGTGCTAG,-0.238
ATGATTGGTTGAACATGAACGTGCTAG,-0.184
AACGGTTTCCTTCTCCTGACGTGCTAG,1.89
TTAGGTCTCCTACTGCTTTTGTGCTAG,0.143
TTAGGTCTCGGATTCGGTTAGTGCTAG,1.84
TCAGGACTCAGGTCTCCCACTGTGCTA,-0.00884
TCATGTATATATTTTAAACTGTGCTAG,0.191
TTAGAACTAGGGACTGGATTAGTGCTA,-0.278
